Published values gathered from unrelated publications.
Compare with care: the assays were run in different laboratories. “And” joins repeats or separate records; there may be more than shown. Numbers after ± are the reported error. Values after ≈ are worked out from the molar mass of the structure shown.
Sequence of UniProt P43250 (whole entry, looked up): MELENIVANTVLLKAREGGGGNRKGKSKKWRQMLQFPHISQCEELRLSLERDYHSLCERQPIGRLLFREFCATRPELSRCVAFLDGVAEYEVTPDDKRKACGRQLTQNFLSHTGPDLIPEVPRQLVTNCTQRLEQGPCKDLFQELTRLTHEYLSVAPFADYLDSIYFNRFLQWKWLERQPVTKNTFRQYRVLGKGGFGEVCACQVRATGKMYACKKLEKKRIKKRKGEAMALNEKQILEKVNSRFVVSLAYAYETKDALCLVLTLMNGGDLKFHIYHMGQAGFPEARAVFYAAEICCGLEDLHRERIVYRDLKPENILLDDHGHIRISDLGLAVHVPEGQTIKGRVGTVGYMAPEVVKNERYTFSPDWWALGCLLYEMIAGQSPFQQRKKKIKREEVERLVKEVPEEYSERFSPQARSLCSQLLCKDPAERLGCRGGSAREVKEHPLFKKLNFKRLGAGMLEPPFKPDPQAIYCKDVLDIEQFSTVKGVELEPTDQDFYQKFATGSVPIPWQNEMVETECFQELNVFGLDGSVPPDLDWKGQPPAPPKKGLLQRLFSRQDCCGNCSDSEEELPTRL
Sequence of UniProt P49840 (whole entry, looked up): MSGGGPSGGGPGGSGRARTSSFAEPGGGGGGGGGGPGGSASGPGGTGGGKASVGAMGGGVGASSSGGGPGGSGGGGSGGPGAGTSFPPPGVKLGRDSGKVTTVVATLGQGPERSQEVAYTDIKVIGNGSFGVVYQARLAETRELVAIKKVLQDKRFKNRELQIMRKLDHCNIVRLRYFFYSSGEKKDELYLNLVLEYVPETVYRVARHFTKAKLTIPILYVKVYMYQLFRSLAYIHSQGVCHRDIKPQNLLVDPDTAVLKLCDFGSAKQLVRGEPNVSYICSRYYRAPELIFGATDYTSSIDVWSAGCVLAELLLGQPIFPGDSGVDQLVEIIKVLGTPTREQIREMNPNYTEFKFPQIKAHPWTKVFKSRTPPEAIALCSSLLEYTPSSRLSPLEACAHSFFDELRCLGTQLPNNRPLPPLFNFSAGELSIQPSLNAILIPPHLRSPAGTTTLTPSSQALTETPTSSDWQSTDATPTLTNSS

SMILES | tested on | assay | system | setting | scale | endpoint | value
CN(C)c1nc(NCc2cccc3ccccc23)c(/N=N/c2ccc(Cl)cc2)c(N(C)C)n1 | Ostrinia furnacalis | leaf dipping |  | 500 mg/L, 96 h |  | mortality | 96.7 ± 5.77%
COc1ccc(Cn2c3cc(=O)n(Cc4cccc(Cl)n4)c(C)c3c(=O)n2-c2ccccn2)cc1 | human respiratory syncytial virus |  | recombinant reporter virus | concentration not given, scale 0 to 100, together with: cytidine 100 µM |  | normalized viral replication | 0
Fc1cccc(COc2ccc(Nc3ncnc4ccc(-c5cccc(N6CCSCC6)c5)cc34)cc2Cl)c1 | Trypanosoma cruzi | intracellular amastigote growth, β-galactosidase CPRG | 3T3, Tulahuen, β-galactosidase-expressing | 10 µM, 96 h |  | inhibition | 55%
CCc1nn(C)c2nc(-c3ccc(C(=O)O)cc3)nc(NCc3ccccc3)c12 | Cryptosporidium parvum |  | HCT-8 | 6 x EC90, 24 h | relative to: DMSO control | parasite number | 45% and 44% and 37.8% and 30.6%
CC(C)[C@H]1NC(=O)[C@H](Cc2ccccc2)NC(=O)[C@@H](C(C)C)NC(=O)[C@@H](C)NC(=O)[C@H](CO)NC(=O)[C@@H](Cc2c(-c3ccc(C4CCCCC4)cc3)[nH]c3ccccc23)NC(=O)[C@@H](CO)NC1=O | Mycobacterium marinum |  |  |  |  | MIC90 | > 100 µM
CC1(C)C(NC(=O)C(=NOC2(C(=O)O)CC2)c2csc(N)n2)C(=O)N1OS(=O)(=O)O (stereo not drawn) | Klebsiella pneumoniae |  | ATCC BAA-2146, ESBL and NDM-1 producing, ICR mice, systemic lethal infection | 20 mg/kg |  | survival rate | 50%
COc1ccc(-c2[nH]c3ccccc3c2C[C@H]2NC(=O)[C@@H](CO)NC(=O)[C@@H](C(C)C)NC(=O)[C@H](Cc3ccccc3)NC(=O)[C@@H](C(C)C)NC(=O)[C@@H](C)NC(=O)[C@H](CO)NC2=O)c(OC)c1 | Mycobacterium marinum |  |  |  |  | MIC90 | 60 µM (≈ 54.8 µg/mL)
CCCCC(CC)COC(=O)CC(C(=O)OCC(CC)CCCC)S(=O)(=O)O.CCCSc1ccc2[nH]c(NC(=O)OC)nc2c1 (stereo not drawn) | Cryptococcus neoformans | EUCAST broth microdilution | clinical isolate | 72 h, 37 °C, RPMI with 2% glucose |  | IC90 | 625 nM
COc1ccccc1-c1n[nH]c2nc(N[C@H]3CC[C@H](NS(=O)(=O)CC(C)C)CC3)ncc12 |  | bead binding, competition bead pull-down, refers to: LINJ.25.1220 | Leishmania donovani extract | 10 µM | relative to: vehicle | relative abundance | 1.22
O=C1NC2(CC2)COc2ncc(F)cc2[C@H]2COCCN2c2ccn3ncc1c3n2 |  |  | Sprague-Dawley rat, male, serum | oral, 10 mg/kg/day, end of recovery, 4-week subacute toxicity |  | serum LDH activity | 919 ± 416 U/L
COc1ccc(C2=[N+]([O-])c3ccccc3N3CCCN=C23)cc1 | Clostridioides difficile | microbial growth |  |  |  | MIC50 | 4 µg/mL (≈ 13 µM)
COc1ccccc1-c1n[nH]c2nc(NC3CCN(C(=O)Cc4ccc(F)cc4F)CC3)ncc12 |  | bead binding, competition bead pull-down, refers to: LINJ.23.1460 | Leishmania donovani extract | 10 µM | relative to: vehicle | relative abundance | 0.94
CS(C)(=O)=Nc1ccc(-c2ccc(-c3nc4cc(O[C@@H]5CO[C@H]6[C@@H]5OC[C@H]6O)[nH]c4cc3F)cc2)cc1 | GSK3A (Homo sapiens, UniProt P49840) | enzyme activity, inhibitor |  | 10 µM |  | inhibition | 5%
Cc1cc(C(=O)Nc2nc3cccc(C)c3n2[C@H]2CCCCN(C(=O)/C=C/CN(C)C)C2)ccn1 | Trypanosoma brucei | propidium iodide flow cytometry | bloodstream form | concentration not given, 48 h |  | cells in sub-G0 phase | 4.47%
Brc1ccc(CCNC2CCCc3c2[nH]c2ccc(C4CCCCC4)cc32)cc1 (stereo not drawn) | Streptococcus pneumoniae |  |  | concentration not given, 10% fetal bovine serum | relative to: without serum | MIC fold change | 4
CC(C)(C)C(=O)OCOP(=O)(OCOC(=O)C(C)(C)C)C1CCCN(O)C1=O (stereo not drawn) | SNB-19 |  |  |  |  | GI50 | 551 nM
O=C(O)C(Cl)Cl.OCCN(CCO)CCO | Solanum nigrum | herbicidal activity |  | 15 mg/mL, 21 days, pre-emergence greenhouse |  | inhibition | 0%
O=C1NC(=O)c2c1c1cc(F)c[n+]3c1c1c2c2cc(O)ccc2[n]1[Ru-4]312([N]=C=S)[S+]3CC[S+]1CC[S+]2CC3 (stereo not drawn) | GRK6 (Homo sapiens, UniProt P43250) | enzyme activity |  | 100 nM, human enzyme, together with: 10 µM ATP | relative to: untreated | remaining activity | 42%

For quick reference, copied from above:
SMILES | tested on | assay | system | setting | scale | endpoint | value
O=C1NC2(CC2)COc2ncc(F)cc2[C@H]2COCCN2c2ccn3ncc1c3n2 |  |  | Sprague-Dawley rat, male, serum | oral, 10 mg/kg/day, end of recovery, 4-week subacute toxicity |  | serum LDH activity | 919 ± 416 U/L
